Results pooled from the literature.
Numbered parts are unrelated; each lists some results of a single study.

Study 1
Target: Phosphate system positive regulatory protein PHO4, full length, GST-tagged (PHO4, Saccharomyces cerevisiae, UniProt P07270, residues 1-312)
Method: competition protein-binding microarray
Molecule type: double-stranded DNA, one strand shown
Sample: in vitro
Tested at: 2 µM
Setting: whole 60-bp probe, lowest competitor level
With: Cbf1 competitor, 0.05 µM
Reading: higher = stronger binding
All sequences stand within: … GTCTTGATTCGCTTGACGCTGCTG
Residues (chain): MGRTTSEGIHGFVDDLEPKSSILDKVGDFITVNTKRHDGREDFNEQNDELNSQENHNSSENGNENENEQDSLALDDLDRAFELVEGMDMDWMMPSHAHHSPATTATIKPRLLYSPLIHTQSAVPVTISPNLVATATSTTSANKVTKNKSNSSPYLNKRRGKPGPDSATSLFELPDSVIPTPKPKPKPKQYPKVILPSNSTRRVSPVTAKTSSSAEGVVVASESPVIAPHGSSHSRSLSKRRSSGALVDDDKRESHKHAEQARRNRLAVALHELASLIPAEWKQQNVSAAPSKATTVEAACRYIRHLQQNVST
Strand | fluorescence intensity [a.u.]
TGCGCAACAACTTGCCACGTGGGTGTATGTCTAGAA | 18200
ATGAATTACCTAACTCAGGTGACGGGGTGTTCAAAT | 4320
AAATTACTAAGTTTTCACGTGTAGTACCCCGTATGA | 13600
CAGCAGCCTTGCCATCACGCTTAGCTTGAATGATGT | 5450
AAGTCCTGGCACTTGCATGTGGTTTCGTAGAAGGTA | 8600
TACTTCGATGCCCAACACGTTATTCACATCTCTCAA | 8240
AAAGCGGTAATTTTTCACGTGTAGTCAAATATCTAT | 14000
CGCCGACGACGCCGACACGCACCGTTCTACTCGCTC | 6650
TCTAATGGTACCCCAAATATCTTATTATGAGTTTTA | 2570
TAAATGGTTCAAATTCACGTGGGTAATAATATGATT | 16500
CCTTTACTTAATACACAGGGGCAAGCCAATGTTCAA | 3780
CTAACGAAGGTTTGCCCTGTGGGTGACAAGCCAAGT | 4390
ATCCCAATACAATTTAACGTGGGACCACCTACCATG | 7870
AGGCTCGCTGGTCAACACATGCTGTGAGCAGGCCTG | 8820
CTTCTGTAAATTTTTCACGTGGGATGACGCGCCCCG | 15400
GCCAAAGTGGTCTTTCACATGCTTACCTACCCGCTA | 5740
AAATTACTAAGTTTTCACGTGAATTACCCCGTATGA | 10100
ATGCGAGACTTGGATAACGTGTTGAGCATCGAAATA | 8940
TTGACGCTGTGTCTCCTCGTGTGAAATCGCAGTACA | 8060

Study 2
Target: Fragile X messenger ribonucleoprotein 1, C-terminal low-complexity region (Fmr1, Mus musculus, UniProt P35922)
Method: RNA Bind-n-Seq
Molecule type: RNA
Sample: in vitro
Tested at: 200 nM
Setting: whole 134-nt RNA, ends assumed
With: 150 mM LiCl
Reference: input library
Reading: higher = stronger binding
Library: 7-deaza-guanosine replaces G
All sequences stand within: GGGAGUUCUACAGUCCGACGAUC … UGGAAUUCUCGGGUGUCAAGG
Strand | log2 enrichment
CCUCAAGUCCUGUGCUACACAUCGUAUGUACCGAAUCGGAAAGGAAAGGAGGAAAGUAUUAUGUUACGCCGUUCGGAUCUGCACUUCCAG | -0.584
CUGUGCUACACAUCGUAUGUACCGAAUCGGUUUUUUUGGGGUUUUUUUGGUUUUUUUGGGGAAAGUAUUAUGUUACGCCGUUCGGAUCUG | 0.575
CUCAAGUCCUGUGCUACACAUCGUAUGUACCGAAUCGGGGAAGGAAGGAAGGGGAAAGUAUUAUGUUACGCCGUUCGGAUCUGCACUUCC | -0.625
GUCCUGUGCUACACAUCGUAUGUACCGAAUCGGGCCCCCGGGCCCCCGGGCCCCCGGGAAAGUAUUAUGUUACGCCGUUCGGAUCUGCAC | -2.81
GUCCUGUGCUACACAUCGUAUGUACCGAAUCGGGGUUUUUUUGGGGAAAGGGGUGGGGAAAGUAUUAUGUUACGCCGUUCGGAUCUGCAC | -1.36
CCUCAAGUCCUGUGCUACACAUCGUAUGUACCGAAUCGGUGGAAAAAGGUGGAAAGUAUUAUGUUACGCCGUUCGGAUCUGCACUUCCAG | 0.399
AAGUCCUGUGCUACACAUCGUAUGUACCGAAUCGGGGCCCCGGGCCCCGGGCCCCGGAAAGUAUUAUGUUACGCCGUUCGGAUCUGCACU | -0.337
UCCUGUGCUACACAUCGUAUGUACCGAAUCGGGCCCCCCGGGCCCCCCGGCCCCCCGGGGAAAGUAUUAUGUUACGCCGUUCGGAUCUGC | -0.561

Study 3
Target: Histone acetyltransferase KAT6A, both winged helices, GST fusion (KAT6A, Homo sapiens, UniProt Q92794, residues 1-181)
Method: protein binding microarray
Molecule type: double-stranded DNA, one strand shown
Sample: in vitro
Tested at: not given
Setting: 8-mer, flanks averaged, mean of 2 arrays, mostly near background
Reference: not given
Reading: higher = stronger binding
Construct (chain): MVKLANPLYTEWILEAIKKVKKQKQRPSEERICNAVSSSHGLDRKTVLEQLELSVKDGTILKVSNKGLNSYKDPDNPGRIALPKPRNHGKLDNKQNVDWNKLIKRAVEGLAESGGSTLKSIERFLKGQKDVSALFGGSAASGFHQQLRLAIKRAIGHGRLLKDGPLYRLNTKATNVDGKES
Strand | E-score
ACACGAAA | 0.0726
AAACCCAG | -0.174
AATGGCCC | -0.0652
AAGTTACT | -0.144
GAGCGTAC | 0.232
TACATTAA | -0.0996
GCTAGAGA | -0.0761
CCTAAACC | -0.148
CCAACTTA | -0.142
TAACAACA | -0.113
ATTAAAAG | -0.0524
CCGTTGGC | 0.195
GGCACCAA | 0.0565
ACCGCAGT | 0.0951
AGTCGGTG | -0.0897
AGGTTGTG | -0.129
ACGTATAC | 0.105
AGATTATG | -0.0338
AAACTTCA | -0.0414
TTATGCAA | -0.189
AAACGCCA | -0.0818
ATCCGGGC | 0.227
ACCTCGAA | -0.121
ACGTGTCG | 0.00152
TAGTCTAA | -0.113

Study 4
Target: RNA binding protein fox-1 homolog 2, RRM domain, GST-SBP tag (RBFOX2, Homo sapiens, UniProt O43251-10, residues 100-194)
Method: RNA Bind-n-Seq
Molecule type: RNA
Sample: in vitro
Tested at: 365 nM
Setting: natural RNA segment, single round, ends assumed
Reference: no-protein control
Reading: higher = stronger binding
All sequences stand within: GGGAGUUCUACAGUCCGACGAUC … UGGAAUUCUCGGGUGCCAA
Target sequence (chain): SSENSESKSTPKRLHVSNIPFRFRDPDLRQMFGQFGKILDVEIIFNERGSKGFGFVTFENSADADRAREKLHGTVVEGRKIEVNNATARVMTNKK
Strand | RBNS enrichment (R)
UACAUUUCUGAAAGCUUUCAAUCUUCAAGAGACAAAAAAAAUUAAAAUAACUACCCUCAGCAAACACUAGCUGUUCUGCUCAUAUAUGAAUUUUUAAUGCAGCAAUGUUG | 0.407
GAAGUUAUCUACAAGCCGCUGGGGCUUGGGGGCUCCACUGGCUCCCCCCAGCCCCCUAAGAGAGCACCUGGUGAUCACGUGGUCACGGCAAAGGAAGACGUGAUGCCAGG | 0.391
AUAAGCCAGAAAGGGUUACUGAGCCACCUUAAGCUAGUACCUAUAUAGUAGGCAAAAAGUACAGAAAUAGAUGCAAUAAGUGUGGUGAGUCUUUGAGCCUACGAGUCAUG | 0.465
GACUUGUCCUUUGAGAGCCUUCUUACAGAGAAUUGGUUAAAAAAACCAAACAUUCAAUUUGGAAUAAGAAUGAUUUUUUAAAGUUCUGUCUGAAACAUUAUCAAACUUGU | 0.508
CCACGGAGUCGUGGGGUGUGCUGGGAGCUCCACUCUGCUUCUCUGACUUCUGCCUGGAGACUUAGGGCACCAGGGGUUUCUCGCAUAGGACCUUUCCACCACAGCCAGCA | 0.682
CUUCAACUGUUUGAAAUAAUGCUCUCUGGGAGGCCAACAUUCCAAGAAUGUAUGAAGAACUGAAACCCUACCAUUUUUAUUCUUCUUUUACAUUAAAUUGUUGAGAACAG | 0.357
CUGUGAGACAGAUGGAACCUUCACAAGGGCGCCUUUGGUUCUCUGAACAUCUCCUUUCUCUUCUUGCUUCAAUUGCUUACCCACUGCCUGCCCAGACUUUCUAUCCAGCC | 1.76
UUCCCUGUGUAACCCCAGCCAGCAGGCCCAGCAUGGCUGCGUGCACUCAUUGCAGUCUUGUUGAACCAGGGUCCUAACCACUAACAUUGCAAUUUGCUUUGAGACCUUCC | 0.504

For quick reference, copied from above (study 3):
Strand | E-score
TAGTCTAA | -0.113
ACGTATAC | 0.105
ACACGAAA | 0.0726
AAACGCCA | -0.0818
GCTAGAGA | -0.0761
AAGTTACT | -0.144
CCGTTGGC | 0.195
